{"data": "Published values from different studies", "sample": "plasma", "note": "Each line is one published result; not all experiments were run side by side."}
{"Structure (SMILES)": "CC(C)NC(=O)NC1CC=C(c2cc3c(Nc4cc5ncsc5cc4F)ncnc3s2)CC1 (racemic)", "species": "mouse", "route": "oral", "dose": "10 mg/kg", "Cmax": "1330 ng/mL"}
{"Structure (SMILES)": "CN[C@H](CC(C)C)C(=O)N[C@H]1C(=O)N[C@@H](CC(N)=O)C(=O)N[C@H]2C(=O)N[C@H]3C(=O)N[C@H](C(=O)N[C@H](C(=O)N[C@H](CCCNC(=N)N)C(N)=O)c4cc(O)cc(O)c4-c4cc3ccc4O)[C@H](O)c3ccc(c(Cl)c3)Oc3cc2cc(c3O[C@@H]2O[C@H](CO)[C@@H](O)[C@H](O)[C@H]2O[C@H]2C[C@](C)(N)[C@H](O)[C@H](C)O2)Oc2ccc(cc2Cl)[C@H]1O", "species": "female CD-1 mouse", "route": "intravenous", "dose": "25 mg/kg", "setting": "single dose", "Cmax": "58600 ng/mL"}
{"Structure (SMILES)": "O=S(=O)(Nc1ccc(OC(F)(F)F)cc1)N1CCCC(C2c3ccc(F)cc3CCc3cc(F)ccc32)C1 (centres unmarked)", "species": "mouse", "route": "oral", "dose": "30 mg/kg", "Cmax": "8860 ng/mL"}
{"Structure (SMILES)": "Cc1cc(C(=O)N[C@@H](CC(=O)NC(C)(C)C)C(=O)NCCNC(=O)c2cccc(-n3cccn3)c2)no1", "species": "mouse", "route": "oral", "dose": "1 mg/kg", "Cmax": "3.4 ng/mL"}
{"Structure (SMILES)": "Cc1cc(NC(=O)[C@H](O)c2cc(F)cc(F)c2)ccc1-c1cnc(N)c(C(=O)NC(C)C)c1", "species": "female nude mouse", "route": "oral", "dose": "50 mg/kg", "setting": "single dose", "Cmax": "7800 ng/mL"}
{"Structure (SMILES)": "CC[C@H](C)/C=C/C=C/C=C/C(O)=C/C(=O)C(F)(F)F", "species": "female C57BL/6 mouse", "route": "oral", "dose": "25 mg/kg", "Cmax": "27.9 µM"}
{"Structure (SMILES)": "Cn1c2cc([S+](C)[O-])sc2c2cnn(Cc3cccc(N)c3)c(=O)c21 (centres unmarked)", "species": "male BALB/c mouse", "route": "intraperitoneal", "dose": "10 mg/kg", "setting": "single dose", "Cmax": "10900 ng/mL"}
{"Structure (SMILES)": "CCn1cc(-c2cc(Cn3ccnc3)cc3c2CCN([C@H](c2cc(OC)ccn2)C2CC2)C3=O)c(C(F)(F)F)n1", "species": "male CD-1 mouse", "route": "oral", "dose": "50 mg/kg", "Cmax": "6550 ng/mL"}
{"Structure (SMILES)": "COc1ccccc1/C=C/CNCC(O)COc1ccc(Nc2ccccc2)cc1 (racemic)", "species": "mouse", "route": "oral", "dose": "10 mg/kg", "Cmax": "58.6 ng/mL"}
{"Structure (SMILES)": "CCC1C(COc2nccc3cc(C(N)=O)c(OC)cc23)NC(=O)C1F (centres unmarked)", "species": "CD-1 mouse", "route": "oral", "dose": "10 mg/kg", "Cmax": "1670 ng/mL"}
{"Structure (SMILES)": "Fc1cccc(-n2cc(-c3ccccc3)nc2NCc2ccc(C(F)(F)F)c(Br)c2)c1", "species": "male CD-1 mouse", "route": "intraperitoneal", "dose": "25 mg/kg", "setting": "single dose", "Cmax": "5460 ng/mL"}
{"Structure (SMILES)": "O=C(OC(C(F)(F)F)C(F)(F)F)N1CCC(CNS(=O)(=O)c2ccc(Cl)cc2)CC1", "species": "male SCID mouse", "route": "oral", "dose": "30 mg/kg", "Cmax": "1780 ng/mL"}
{"Structure (SMILES)": "O=C(NCCCCc1ccccc1)n1c(=O)oc2cc(-c3ccc(F)cc3)ccc21", "species": "CD-1 mouse", "route": "intravenous", "dose": "1 mg/kg", "Cmax": "628 ng/mL"}
{"Structure (SMILES)": "COC(=O)C1=CNC=C(C(=O)OC)C1c1ccc(F)c(C(F)(F)F)c1", "species": "male C57BL/6 mouse", "route": "intravenous", "dose": "2 mg/kg", "Cmax": "2910 ng/mL"}
{"Structure (SMILES)": "COC1C(c2ccc(Cl)c(Cc3ccc(OC4CCOC4)cc3)c2)OC(CO)C(O)C1O (centres unmarked)", "species": "CD-1 mouse", "route": "oral", "dose": "10 mg/kg", "Cmax": "7970 ng/mL"}
{"Structure (SMILES)": "COc1cnc2cccc(N3CCc4c(cc(Cn5ccnc5)cc4-c4cn(C)nc4C(F)(F)F)C3=O)c2c1", "species": "male CD-1 mouse", "route": "intraperitoneal", "dose": "50 mg/kg", "Cmax": "26800 ng/mL"}
{"Structure (SMILES)": "O=C(C1CC1)N1CCC=C(c2cc3c(Nc4cc5ncsc5cc4F)ncnc3s2)C1", "species": "mouse", "route": "oral", "dose": "10 mg/kg", "Cmax": "1870 ng/mL"}
{"note": "Excerpt of the above:"}
{"Structure (SMILES)": "Cn1c2cc([S+](C)[O-])sc2c2cnn(Cc3cccc(N)c3)c(=O)c21 (centres unmarked)", "species": "male BALB/c mouse", "route": "intraperitoneal", "dose": "10 mg/kg", "setting": "single dose", "Cmax": "10900 ng/mL"}
{"Structure (SMILES)": "CCn1cc(-c2cc(Cn3ccnc3)cc3c2CCN([C@H](c2cc(OC)ccn2)C2CC2)C3=O)c(C(F)(F)F)n1", "species": "male CD-1 mouse", "route": "oral", "dose": "50 mg/kg", "Cmax": "6550 ng/mL"}
